Measured values pooled from the literature.
Every numbered part comes from another study and shows a few of its results, in no order.

Study 1 — technique: protein-binding microarray; molecule type: double-stranded DNA, one strand shown; medium: in vitro; tested at: 0.8 µM; setting: whole 60-bp probe, no competitor; reading: higher = stronger binding; shared flanks, not repeated: … GTCTTGATTCGCTTGACGCTGCTG
Target: Centromere-binding protein 1, full length, N-terminal tag (CBF1, Saccharomyces cerevisiae, UniProt P17106, residues 1-351)
UniProt P17106, sequence (whole entry, looked up): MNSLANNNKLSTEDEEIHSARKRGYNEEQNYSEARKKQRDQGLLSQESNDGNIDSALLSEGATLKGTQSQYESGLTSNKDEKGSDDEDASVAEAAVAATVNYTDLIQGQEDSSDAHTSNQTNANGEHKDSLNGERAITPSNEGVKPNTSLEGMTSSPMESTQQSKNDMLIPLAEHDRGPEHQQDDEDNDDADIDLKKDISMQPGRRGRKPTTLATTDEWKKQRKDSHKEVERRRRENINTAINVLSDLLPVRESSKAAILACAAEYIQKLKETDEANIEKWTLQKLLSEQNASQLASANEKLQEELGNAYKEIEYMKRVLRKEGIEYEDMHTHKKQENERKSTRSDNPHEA
| Sequence | fluorescence intensity [a.u.] |
| --- | --- |
| GAATTTTAAGCTTTTCTCCTGATCGCTTTATCCTAG | 521 |
| GAAGATAGCGCCCATCATATGATCATCCCATTATAG | 751 |
| CCTAACTACTATAGTGATGAGATATAGCTTCGTACA | 532 |
| GAAACCAAATGCGGCCACGTTTAGGGCAGAGCATAG | 505 |
| GAATTTCAGTTTCCGCGCGTGACTTAGATTTGGTAG | 2520 |
| GAAATTTAAACTTTTTAGGTGACGTTTCTCTTCTAG | 496 |
| GAATTATCATTTGTGCTCGTGAGGCTATGAAATTAG | 631 |
| CTATTATATGACATTCACATGAATTCAACAGCTTTC | 558 |

Study 2 — technique: protein-binding microarray; molecule type: double-stranded DNA, one strand shown; medium: in vitro; tested at: not given; reading: higher = stronger binding
Target: Protein C-ets-1 (ETS1, Homo sapiens, UniProt P14921, residues 1-441, full length assumed)
Setting: k-mer, scored over probes, only values ≥0.25
Target sequence (chain): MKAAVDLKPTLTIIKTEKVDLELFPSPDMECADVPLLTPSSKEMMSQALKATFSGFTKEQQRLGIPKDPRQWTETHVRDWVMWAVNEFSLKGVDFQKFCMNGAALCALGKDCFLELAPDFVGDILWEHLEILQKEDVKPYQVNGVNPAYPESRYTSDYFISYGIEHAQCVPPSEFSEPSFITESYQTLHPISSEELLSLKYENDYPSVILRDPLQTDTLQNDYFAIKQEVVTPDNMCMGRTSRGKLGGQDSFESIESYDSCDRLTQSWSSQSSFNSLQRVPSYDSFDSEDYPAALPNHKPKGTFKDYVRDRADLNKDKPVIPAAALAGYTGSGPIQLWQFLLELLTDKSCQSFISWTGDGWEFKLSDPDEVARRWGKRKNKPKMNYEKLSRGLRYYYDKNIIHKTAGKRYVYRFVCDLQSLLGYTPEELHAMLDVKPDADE
| Sequence | E-score |
| --- | --- |
| GGGAAGCA | 0.355 |
| AAGTTTCC | 0.352 |
| GGATGTAA | 0.424 |
| CCGGAAAG | 0.467 |
| GTTCCGCA | 0.281 |
| GGCCCGGA | 0.372 |

Study 3 — technique: aptamer microarray, sandwich; molecule type: DNA with 2'F-ANA; medium: in vitro; tested at: 200 nM; together with: Cy3 exosite-II aptamer, 400 nM; reading: higher = stronger binding; sequence: GGTTGGTGTGGTTGG
Target: Prothrombin, mature alpha-thrombin (F2, Homo sapiens, UniProt P00734)
Setting: whole 15-mer aptamer, many near background
| Modification | mean fluorescence intensity [a.u.] |
| --- | --- |
| 2'F-ANA at 1 3 5 10 14 15 | 44.7 |
| 2'F-ANA at 1 2 5 6 9 12 13 14 15 | 48.1 |
| 2'F-ANA at 1 2 3 4 8 9 12 13 14 15 | 67.2 |
| 2'F-ANA at 4 5 8 9 11 15 | 59.8 |
| 2'F-ANA at 2 3 4 5 6 7 10 11 13 14 15 | 58.3 |
| 2'F-ANA at 1 2 5 6 9 12 15 | 99.4 |
| 2'F-ANA at 1 2 4 5 6 8 10 11 13 15 | 56.4 |
| 2'F-ANA at 3 5 8 9 11 12 14 15 | 98.7 |
| 2'F-ANA at 1 4 5 6 7 8 11 12 14 | 52.6 |
| 2'F-ANA at 2 6 7 8 10 12 13 15 | 174 |
| 2'F-ANA at 1 5 6 7 8 12 13 15 | 95.7 |

Mixed results
| Substance | target | assay | system | setting | how to read | quantity | result |
| --- | --- | --- | --- | --- | --- | --- | --- |
| PhoQ, residues 284 288 289 292 302 303 TAVSDG | PhoP, residues 12 14 15 18 19 LHHSG (Escherichia coli, UniProt P23836) | Sort-seq, measured: YFP reporter | E. coli | PhoQ-PhoP variant library, together with: 10 µM Mg2+ | baseline: high Mg2+ state, higher = stronger signaling | fold induction | 3.2 |

For quick reference, copied from above (study 1):
| Sequence | fluorescence intensity [a.u.] |
| --- | --- |
| GAAACCAAATGCGGCCACGTTTAGGGCAGAGCATAG | 505 |
| GAATTATCATTTGTGCTCGTGAGGCTATGAAATTAG | 631 |
